{"data": "Published values gathered from unrelated publications", "organism": "Mycobacterium tuberculosis", "note": "Compare with care: the assays were run in different laboratories."}
{"SMILES": "NCCCCCCCCCCCC(=O)NS(=O)(=O)OC[C@H]1O[C@@H](n2cnc3c(N)ncnc32)[C@H](O)[C@@H]1O", "test": "broth microdilution", "system": "H37Rv, GAST medium", "conditions": "MIC at >99% growth inhibition", "measurement": "MIC", "result": "3.13 to 6.25 µM"}
{"SMILES": "COc1c(N2C[C@@H]3CCCN[C@@H]3C2)c(F)cc2c(=O)c(C(=O)O)cn(C3CC3)c12", "system": "mouse, lung", "conditions": "inhaled or intranasal, 30 mg/kg once daily, 216 h", "measurement": "lung CFU reduction", "result": "3.07 log10 CFU"}
{"SMILES": "[H]/N=C(/N)N[C@H]1[C@H](O)[C@@H](O)[C@H](O[C@@H]2O[C@@H](C)[C@](O)(C=O)[C@H]2O[C@@H]2O[C@@H](CO)[C@H](O)[C@@H](O)[C@@H]2NC)[C@@H](N/C(N)=N\\[H])[C@@H]1O", "test": "microbial growth, disc diffusion", "system": "ATCC25177", "conditions": "1 µg/disc, 12 days", "measurement": "inhibition zone", "result": "0 mm"}
{"SMILES": "Clc1ccccc1NCc1ccc(Oc2ccccn2)cc1", "system": "H37Rv, GAST-Fe medium", "conditions": "1 weeks, pH 6.6", "measurement": "MIC", "result": "20.1 µM"}
{"SMILES": "Nc1ncnc2c1ncn2[C@@H]1O[C@H](COS(=O)(=O)NC(=O)CCCCCCCCCCOc2cccc(F)c2)[C@@H](O)[C@H]1O", "test": "broth microdilution", "system": "H37Rv, GAST medium", "conditions": "MIC at >99% growth inhibition", "measurement": "MIC", "result": "25 to 50 µM"}
{"SMILES": "O=C(OCc1ccccc1)[C@@H]1CSC(c2ccccc2)=N1", "test": "microplate alamar blue", "system": "H37Rv (ATCC 27294), 7H12 medium", "conditions": "replicating bacteria, range", "measurement": "MIC", "result": "7.7 to 17.4 µM"}
{"SMILES": "CCCCC/C=C\\CCCC(=O)NS(=O)(=O)OC[C@H]1O[C@@H](n2cnc3c(N)ncnc32)[C@H](O)[C@@H]1O", "test": "broth microdilution", "system": "H37Rv, GAST medium", "conditions": "MIC at >99% growth inhibition", "measurement": "MIC", "result": "6.25 µM"}
{"SMILES": "NNC(=O)c1ccncc1", "system": "H37Rv, GAST-Fe medium", "conditions": "1 weeks, pH 6.6", "measurement": "MIC", "result": "0.2 µM"}
{"SMILES": "CC(C)=CCCC(C)=CCNCCNC1(C)C2CC3CC(C2)CC1C3 (stereo not shown)", "test": "growth", "system": "Erdman", "measurement": "IC50", "result": "2000 nM"}
{"SMILES": "c1ccc(NCc2ccc(Oc3ccccn3)cc2)cc1", "system": "H37Rv, 7H9/ADC/Tween medium", "conditions": "1 weeks", "measurement": "MIC", "result": "> 50 µM"}
{"SMILES": "O=C(OCc1ccccc1)c1cc(-c2ccccc2)on1", "test": "microplate alamar blue", "system": "H37Rv (ATCC 27294), 7H12 medium", "conditions": "replicating bacteria, range", "measurement": "MIC", "result": "0.7 to 0.8 µM"}
{"SMILES": "Cc1cccc(NCc2ccc(Oc3ccccn3)cc2)c1", "system": "H37Rv, GAST-Fe medium", "conditions": "2 weeks, pH 6.6", "measurement": "MIC", "result": "43 µM"}
{"SMILES": "O=C(OCc1ccccc1)c1coc(-c2ccccc2)n1", "test": "microplate alamar blue", "system": "H37Rv (ATCC 27294), 7H12 medium", "conditions": "replicating bacteria, range", "measurement": "MIC", "result": "3 to 5 µM"}
{"note": "Some of these lines once more:"}
{"SMILES": "O=C(OCc1ccccc1)c1cc(-c2ccccc2)on1", "test": "microplate alamar blue", "system": "H37Rv (ATCC 27294), 7H12 medium", "conditions": "replicating bacteria, range", "measurement": "MIC", "result": "0.7 to 0.8 µM"}
